Assay results gathered from unrelated publications.
Protocols differ between the studies behind these lines.
TDP1: Tyrosyl-DNA phosphodiesterase 1 (TDP1, Homo sapiens, UniProt Q9NUW8)
Chain of UniProt Q9NUW8 (whole entry, looked up): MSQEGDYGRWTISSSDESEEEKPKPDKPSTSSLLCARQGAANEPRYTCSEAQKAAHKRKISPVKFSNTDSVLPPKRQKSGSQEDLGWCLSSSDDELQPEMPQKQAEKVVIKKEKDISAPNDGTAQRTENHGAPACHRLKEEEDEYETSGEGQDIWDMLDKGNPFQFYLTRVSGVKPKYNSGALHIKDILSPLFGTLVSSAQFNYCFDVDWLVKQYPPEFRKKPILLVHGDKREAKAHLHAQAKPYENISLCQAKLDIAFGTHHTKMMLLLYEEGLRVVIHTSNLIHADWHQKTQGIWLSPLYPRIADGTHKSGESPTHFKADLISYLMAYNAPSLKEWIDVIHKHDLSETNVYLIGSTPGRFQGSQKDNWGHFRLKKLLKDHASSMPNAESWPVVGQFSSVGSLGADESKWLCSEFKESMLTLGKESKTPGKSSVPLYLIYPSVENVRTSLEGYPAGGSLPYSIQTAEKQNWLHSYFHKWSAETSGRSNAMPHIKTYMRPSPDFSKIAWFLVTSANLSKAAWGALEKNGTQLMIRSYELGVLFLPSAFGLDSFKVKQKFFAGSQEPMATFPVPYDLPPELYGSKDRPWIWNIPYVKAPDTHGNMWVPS
T1: dsDNA, duplex; chain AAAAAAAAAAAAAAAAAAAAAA; chain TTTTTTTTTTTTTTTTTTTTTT
T2: DNA junction; chain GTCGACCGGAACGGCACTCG; chain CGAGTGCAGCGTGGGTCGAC; chain CCACGCTCGTTCCG
T3: RNA, abasic bulge, CUG repeat hairpin; GACAGCUGCUGUC
T4: ssDNA; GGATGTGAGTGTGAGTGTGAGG
T5: RNA; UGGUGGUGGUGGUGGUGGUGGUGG
T6: dsDNA, duplex; chain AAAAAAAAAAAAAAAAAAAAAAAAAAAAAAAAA; chain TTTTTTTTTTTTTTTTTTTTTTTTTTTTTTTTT
T7: RNA, abasic bulge mismatch; chain CUAAUGGAAUG; chain CAUUUGGUUAG
T8: RNase P RNA (Methanobrevibacter smithii); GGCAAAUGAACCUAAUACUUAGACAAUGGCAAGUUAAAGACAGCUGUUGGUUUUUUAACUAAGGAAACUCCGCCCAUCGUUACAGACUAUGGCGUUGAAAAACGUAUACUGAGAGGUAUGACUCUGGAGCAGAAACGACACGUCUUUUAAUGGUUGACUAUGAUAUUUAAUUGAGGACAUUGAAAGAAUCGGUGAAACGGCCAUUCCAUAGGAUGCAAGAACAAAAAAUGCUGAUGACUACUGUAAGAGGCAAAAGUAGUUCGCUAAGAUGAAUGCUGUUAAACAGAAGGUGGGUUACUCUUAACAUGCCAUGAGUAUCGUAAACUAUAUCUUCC
T9: dsDNA; chain CTGCACTAGGCACTACCG; chain CGGTAGTGCCTAGTGCAG
T10: DNA aptamer; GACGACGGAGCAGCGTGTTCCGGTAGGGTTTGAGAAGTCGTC
T11: RNA, base-paired repeat; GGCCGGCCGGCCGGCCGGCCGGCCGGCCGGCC
T12: dsDNA, duplex; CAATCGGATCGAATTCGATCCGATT

target	assay	system	setting	quantity	value	Structure (SMILES)
T1, dsDNA, duplex	competition with EtBr, competitor, EtBr displacement fluorescence	–	Na+ 50 mM, with: EtBr	binding	binds	CCCc1n(Cc2ccc(Br)cc2)c2c([n+]1Cc1ccc(Br)cc1)CCCC2
T2, DNA junction	AFM	–	–	binding	binds	C(=NC(COCc1ccc2oc3ccc(COCC(N=Cc4ccccn4)c4ccccc4)cc3c2c1)c1ccccc1)c1ccccn1.C(=NC(COCc1ccc2oc3ccc(COCC(N=Cc4ccccn4)c4ccccc4)cc3c2c1)c1ccccc1)c1ccccn1.C(=NC(COCc1ccc2oc3ccc(COCC(N=Cc4ccccn4)c4ccccc4)cc3c2c1)c1ccccc1)c1ccccn1.[Fe+2].[Fe+2] (centres unmarked)
T3, RNA, abasic bulge, CUG repeat hairpin	NMR	–	35 °C	binding	binds	COc1cccc(Nc2cc(C)nc3ccc(C(=N)N)cc23)c1
T4, ssDNA	fluorescence turn-on	–	–	binding	no binding	CN(C)c1ccc(C2=C/C(=C/C=C/c3sc4ccccc4[n+]3C)c3ccccc3O2)cc1
T5, RNA	SPR	–	–	binding	binds	O=C1Nc2ccc3ccc(nc3n2)CNCc2ccc3ccc(nc3n2)NC(=O)OCCCNCCCO1
T6, dsDNA, duplex	competition with EtBr, competitor, EtBr displacement fluorescence	–	Na+ 50 mM, with: EtBr	binding	binds	CCCCCCCCn1c(CC)c(C)[n+](CCCCCCCC)c1CCC
T7, RNA, abasic bulge mismatch	thermal melting	–	–	binding	no binding	Cc1ccc2ccc(NC(=O)OCCCNCc3ccc(/N=N\c4ccc(CNCCCOC(=O)Nc5ccc6ccc(C)nc6n5)cc4)cc3)nc2n1
T8, RNase P RNA (Methanobrevibacter smithii)	WaterLOGSY NMR	–	–	binding	binds	COc1ccccc1[C@]1(O)C[C@H](c2ccc(C)cc2)N[C@H](c2ccc(C)cc2)[C@H]1C
TDP1	enzyme activity, inhibitor	–	100 µM, unpurified compound	inhibition	47.3%	C#CCOc1ccc(C=NOCc2ccc(-c3nc4cc(-c5ccccc5)ccn4c3Nc3ccc(C(=O)O)cc3)cc2)cc1 (mixture of isomers)
T9, dsDNA	ITC	–	–	binding	binds weakly	N=C(N)NCCCCNc1nc(N)nc(NCCCCNC(=N)N)n1
T7, RNA, abasic bulge mismatch	CD spectra	–	before irradiation	binding	no binding	Cc1ccc2ccc(NC(=O)OCCCN(CCCOC(=O)Nc3ccc4ccc(C)nc4n3)Cc3ccc(/N=N/c4ccc(CN(CCCOC(=O)Nc5ccc6ccc(C)nc6n5)CCCOC(=O)Nc5ccc6ccc(C)nc6n5)cc4)cc3)nc2n1
T10, DNA aptamer	ThT fluorescence	–	500 nM, with: ThT 1 µM	binding	binds	Cc1ccc2c(c1)sc(-c1ccc(N(C)C)cc1)[n+]2C
T11, RNA, base-paired repeat	BLI	–	–	binding	binds weakly	O=C(CN1CCCN(C(=O)CN2CCCN(Cc3cccc4cnccc34)CC2)CC1)NCCOCCOCCNCCOCCOCCNC(=O)CN1CCCN(C(=O)CN2CCCN(Cc3cccc4cnccc34)CC2)CC1
TDP1	enzyme activity, inhibitor	–	100 µM, unpurified compound	inhibition	40.7%	COc1cc(Br)ccc1C=NOCc1ccc(-c2nc3cc(-c4ccccc4)ccn3c2Nc2ccc(C(=O)O)cc2)cc1
Phosphatidylinositol-4,5-bisphosphate 3-kinase, catalytic subunit gamma (Rattus norvegicus, UniProt D3ZFJ0)	KiNativ	rat whole blood cells	0.1 µM, 1 h	binding	26.2%	CC(=O)c1cnc(N)nc1N1CC[C@H]1c1nn2ccc(Cl)c2c(=O)n1-c1ccccc1
T12, dsDNA, duplex	fluorescence turn-on	–	–	binding	binds	CN(C)c1ccc(/C=C/C=C/c2cc(-c3ccc(N(C)C)cc3)[o+]c3ccccc23)cc1
T11, RNA, base-paired repeat	BLI	–	–	binding	binds weakly	O=C(CN1CCCN(C(=O)CN2CCCN(Cc3cccc4cnccc34)CC2)CC1)NCCNCCNC(=O)CN1CCCN(C(=O)CN2CCCN(Cc3cccc4cnccc34)CC2)CC1

A few entries again:
target	assay	system	setting	quantity	value	Structure (SMILES)
TDP1	enzyme activity, inhibitor	–	100 µM, unpurified compound	inhibition	47.3%	C#CCOc1ccc(C=NOCc2ccc(-c3nc4cc(-c5ccccc5)ccn4c3Nc3ccc(C(=O)O)cc3)cc2)cc1 (mixture of isomers)
